Experimental data collected from several papers.
A part holds a random share of what one study measured.
Chain of UniProt P00519 (whole entry, looked up): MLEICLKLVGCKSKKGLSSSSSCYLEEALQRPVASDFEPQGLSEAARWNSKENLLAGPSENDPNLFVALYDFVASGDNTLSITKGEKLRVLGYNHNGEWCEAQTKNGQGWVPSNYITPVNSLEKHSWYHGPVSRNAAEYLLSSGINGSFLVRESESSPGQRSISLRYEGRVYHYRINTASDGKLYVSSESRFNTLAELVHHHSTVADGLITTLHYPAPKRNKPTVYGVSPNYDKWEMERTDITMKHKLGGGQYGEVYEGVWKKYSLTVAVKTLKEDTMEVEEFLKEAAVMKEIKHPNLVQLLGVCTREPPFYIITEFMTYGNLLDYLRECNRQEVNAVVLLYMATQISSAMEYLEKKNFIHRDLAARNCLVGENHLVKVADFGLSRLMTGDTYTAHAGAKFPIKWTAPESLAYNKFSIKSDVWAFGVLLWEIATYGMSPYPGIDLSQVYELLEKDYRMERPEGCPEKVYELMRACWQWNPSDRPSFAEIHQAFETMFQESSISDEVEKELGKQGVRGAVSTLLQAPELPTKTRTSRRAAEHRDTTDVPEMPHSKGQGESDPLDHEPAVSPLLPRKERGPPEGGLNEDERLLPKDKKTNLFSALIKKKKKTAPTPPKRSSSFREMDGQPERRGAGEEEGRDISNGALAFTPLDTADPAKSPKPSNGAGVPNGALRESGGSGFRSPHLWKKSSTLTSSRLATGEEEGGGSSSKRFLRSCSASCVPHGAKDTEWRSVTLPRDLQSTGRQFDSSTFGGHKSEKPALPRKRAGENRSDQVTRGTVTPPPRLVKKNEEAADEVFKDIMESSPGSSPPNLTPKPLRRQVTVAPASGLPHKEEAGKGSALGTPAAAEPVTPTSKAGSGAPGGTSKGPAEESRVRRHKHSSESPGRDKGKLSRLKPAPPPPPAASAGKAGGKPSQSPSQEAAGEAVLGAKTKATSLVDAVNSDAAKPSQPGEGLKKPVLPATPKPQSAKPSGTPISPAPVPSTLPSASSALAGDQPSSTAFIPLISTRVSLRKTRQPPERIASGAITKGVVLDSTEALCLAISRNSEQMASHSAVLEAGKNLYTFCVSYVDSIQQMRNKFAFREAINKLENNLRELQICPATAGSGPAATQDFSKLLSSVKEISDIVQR
Chain of UniProt O94921 (whole entry, looked up): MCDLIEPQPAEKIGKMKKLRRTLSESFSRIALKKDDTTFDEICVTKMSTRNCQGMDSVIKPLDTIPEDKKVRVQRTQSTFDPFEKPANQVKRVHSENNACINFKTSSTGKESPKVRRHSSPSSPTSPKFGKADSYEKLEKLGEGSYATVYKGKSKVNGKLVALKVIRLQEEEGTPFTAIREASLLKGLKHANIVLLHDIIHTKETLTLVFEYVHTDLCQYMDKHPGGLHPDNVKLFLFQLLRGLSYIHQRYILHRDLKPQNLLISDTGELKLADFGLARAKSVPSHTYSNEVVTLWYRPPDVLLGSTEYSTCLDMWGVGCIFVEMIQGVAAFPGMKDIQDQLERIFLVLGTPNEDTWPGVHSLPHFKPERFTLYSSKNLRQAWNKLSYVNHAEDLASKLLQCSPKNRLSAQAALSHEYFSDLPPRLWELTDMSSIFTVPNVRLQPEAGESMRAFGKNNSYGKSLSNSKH
Chain of UniProt Q96RR4 (whole entry, looked up): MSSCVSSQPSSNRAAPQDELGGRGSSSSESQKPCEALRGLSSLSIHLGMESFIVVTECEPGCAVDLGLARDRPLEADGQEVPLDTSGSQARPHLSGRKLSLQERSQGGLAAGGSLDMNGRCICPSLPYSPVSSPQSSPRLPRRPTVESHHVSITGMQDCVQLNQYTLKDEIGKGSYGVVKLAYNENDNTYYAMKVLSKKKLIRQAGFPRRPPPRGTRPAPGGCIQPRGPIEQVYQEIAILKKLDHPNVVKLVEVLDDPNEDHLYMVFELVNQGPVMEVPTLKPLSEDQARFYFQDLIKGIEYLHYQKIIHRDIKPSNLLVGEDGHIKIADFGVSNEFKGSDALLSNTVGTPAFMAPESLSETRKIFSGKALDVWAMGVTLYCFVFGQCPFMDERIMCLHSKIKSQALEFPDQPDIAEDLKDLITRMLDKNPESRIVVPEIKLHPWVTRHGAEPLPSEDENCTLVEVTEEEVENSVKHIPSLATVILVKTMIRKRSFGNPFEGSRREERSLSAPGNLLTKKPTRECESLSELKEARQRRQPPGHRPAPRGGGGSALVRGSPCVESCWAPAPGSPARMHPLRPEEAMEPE

Study 1 — tested at: 1 µM; quantity: remaining binding
Compound: CN1CCN(C(=O)c2ccc(NC(=O)Nc3ccc(N(C)c4ccnc(Nc5ccc(CS(C)(=O)=O)cc5)n4)cc3)cc2)CC1
target = Aurora kinase C (AURKC, Homo sapiens, UniProt Q9UQB9); assay = competitive binding panel; how to read = baseline: vehicle; result = 0.2%
target = STK3 (Homo sapiens, UniProt Q13188); assay = competitive binding panel, item: MST2; how to read = baseline: vehicle; result = 16%
target = MATK (Homo sapiens, UniProt P42679); assay = competitive binding; setting = CTK; result = 100%
target = LRRK2 (Homo sapiens, UniProt Q5S007); assay = competitive binding panel; how to read = baseline: vehicle; result = 74%
target = TSSK3 (Homo sapiens, UniProt Q96PN8); assay = competitive binding panel; how to read = baseline: vehicle; result = 75%
target = ABL1 (Homo sapiens, UniProt P00519); assay = competitive binding, scanMAX; setting = phosphorylated, 1000 nM; result = 30%
target = CDC42BPG (Homo sapiens, UniProt Q6DT37); assay = competitive binding panel, item: DMPK2; how to read = baseline: vehicle; result = 64%
target = MAP3K9 (Homo sapiens, UniProt P80192); assay = competitive binding panel, item: MLK1; how to read = baseline: vehicle; result = 86%
target = CDK14 (Homo sapiens, UniProt O94921); assay = competitive binding panel, item: PFTK1; how to read = baseline: vehicle; result = 81%
target = STK35 (Homo sapiens, UniProt Q8TDR2); assay = competitive binding panel; how to read = baseline: vehicle; result = 71%
target = CAMKK2 (Homo sapiens, UniProt Q96RR4); assay = competitive binding panel; how to read = baseline: vehicle; result = 100%
target = MAPK15 (Homo sapiens, UniProt Q8TD08); assay = competitive binding panel, item: ERK8; how to read = baseline: vehicle; result = 25%
target = NTRK1 (Homo sapiens, UniProt P04629); assay = competitive binding; setting = TRKA; result = 7.1%

Study 2 — read-out: enzyme activity; action: inhibitor; tested at: 0.5 µM; baseline: control; quantity: remaining activity
Target: Serine/threonine-protein kinase pim-2 (PIM2, Homo sapiens, UniProt Q9P1W9)
Chain of UniProt Q9P1W9 (whole entry, looked up): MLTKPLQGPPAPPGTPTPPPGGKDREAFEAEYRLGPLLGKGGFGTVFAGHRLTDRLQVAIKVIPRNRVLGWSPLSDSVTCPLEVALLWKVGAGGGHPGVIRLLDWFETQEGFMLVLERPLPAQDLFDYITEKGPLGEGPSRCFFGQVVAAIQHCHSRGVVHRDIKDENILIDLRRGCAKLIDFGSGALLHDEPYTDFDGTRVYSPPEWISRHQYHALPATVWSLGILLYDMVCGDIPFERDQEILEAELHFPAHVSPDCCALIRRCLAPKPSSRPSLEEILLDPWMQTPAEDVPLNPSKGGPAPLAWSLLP
Compound = FC(F)(F)c1ccc(/C=C/c2nc(COc3ccc(CCCCn4ccnn4)cc3)co2)cc1; result = 116%
Compound = O=C1c2ccccc2-c2nc3nnnn3nc21; result = 92.8%
Compound = COc1cc2c(N3CCN(C(=O)Nc4ccc(OC(C)C)cc4)CC3)ncnc2cc1OCCCN1CCCCC1; result = 113%
Compound = O=C(c1ccccc1)c1ccc(N2CCOCC2)cc1O; result = 105%
Compound = CCCCc1c(-c2ccc(O)cc2)[nH]c2nccnc12; result = 121%
Compound = COc1cc2c(Nc3ccc(Br)cc3F)ncnc2cc1OCC1CCN(C)CC1; result = 99.4%
Compound = O=c1c(-c2ccc(F)cc2)c(-c2ccncc2)[nH]n1-c1ccc(Cl)cc1; result = 114%
Compound = CCN(CC)CCCCN1c2ccccc2Oc2ccc(Cl)cc21; result = 109%
Compound = CC(C)n1cnc2c(Nc3cccc(Cl)c3)nc(NCCO)nc21; result = 97%
Compound = Nc1nc(Nc2ccc(S(N)(=O)=O)cc2)nn1C(=S)Nc1c(F)cccc1F; result = 106%
Compound = NC(=O)c1cccc(-c2cc(Nc3ccc(OC(F)(F)F)cc3)ncn2)c1; result = 115%
Compound = CNc1cc2c(Nc3cccc(Br)c3)ncnc2cn1; result = 102%

Study 3 — cell line: normal-adjacent organoid sample E; technique: CellTiter-Glo; tested at: 1 µM; notes: replicate mean; baseline: DMSO; quantity: viability
SMILES = O=C(Nc1cnc(Oc2ccc(F)cc2)nc1)N1CCc2ncccc2[C@@H]1c1ccc(F)cc1; result = 167%
SMILES = Cc1ccccc1Oc1cc(-n2c(=O)cc(C(F)(F)F)[nH]c2=O)c2ccccc2c1Cl; result = 98.1%
SMILES = CCNC(=O)c1cc2c(N3CCOC[C@@H]3C)ccnc2[nH]1; result = 114%
SMILES = C[C@@H]1CN(c2cc(-c3nn(C)c4ccc(OC5(C)CC5)cc34)ncn2)C[C@H](C)O1; result = 112%
SMILES = CN([C@@H]1CCc2c(CC(=O)O)c3ccccc3n2C1)S(=O)(=O)c1ccc(F)cc1; result = 123%
SMILES = Cn1nc(C(=O)NCc2ccc(C(=O)O)cc2)cc1-c1ccc2[nH]ccc2c1; result = 101%
SMILES = CC(=O)Nc1c(F)cc(C(=O)N[C@H]2CC[C@H](O)CC2)cc1O[C@@H](C)c1ccccc1; result = 89.2%
SMILES = Cc1c(N2CCCC2)nc2ccc(Br)cc2c1C(=O)NC[C@H](CCC(=O)O)c1ccccc1Cl; result = 97.2%
SMILES = CC1=C(C#N)C(c2ccc3[nH]nc(C)c3c2)C(C#N)=C(C)N1; result = 122%
SMILES = Cc1c(Oc2ccc(F)cc2)c(OC(C)C)nn1-c1ccc(C2CC2)cn1; result = 106%
SMILES = CCS(=O)(=O)c1cc2cc(C[C@](O)(CC(C)(C)c3ccc(F)cc3C(N)=O)C(F)(F)F)[nH]c2cn1; result = 102%
SMILES = CO[C@@H](C)c1c(Nc2ccc([C@H](N(C)C(=O)C3CCS(=O)(=O)CC3)C(F)(F)F)cc2)cnc2cc(Cl)nn12; result = 97.3%
SMILES = O=C(Nc1cccnn1)N1CCC(=Cc2cccc(Oc3ccc(C(F)(F)F)cn3)c2)CC1; result = 87.7%
SMILES = Cn1cc(Cl)c2c(Oc3c(F)cc(Nc4cc(Cl)nc(N)n4)cc3F)ccnc21; result = 186%
SMILES = CC(=O)C1=C(C)N(c2cccc(C(F)(F)F)c2)C(=O)N[C@@H]1c1ccc(C#N)nc1; result = 114%

Study 4 — read-out: enzyme activity; action: inhibitor; tested at: 77 µM; quantity: remaining activity
Target: DNA polymerase theta, ATPase domain (POLQ, Homo sapiens, UniProt O75417)
Chain of UniProt O75417 (whole entry, unmodified, looked up): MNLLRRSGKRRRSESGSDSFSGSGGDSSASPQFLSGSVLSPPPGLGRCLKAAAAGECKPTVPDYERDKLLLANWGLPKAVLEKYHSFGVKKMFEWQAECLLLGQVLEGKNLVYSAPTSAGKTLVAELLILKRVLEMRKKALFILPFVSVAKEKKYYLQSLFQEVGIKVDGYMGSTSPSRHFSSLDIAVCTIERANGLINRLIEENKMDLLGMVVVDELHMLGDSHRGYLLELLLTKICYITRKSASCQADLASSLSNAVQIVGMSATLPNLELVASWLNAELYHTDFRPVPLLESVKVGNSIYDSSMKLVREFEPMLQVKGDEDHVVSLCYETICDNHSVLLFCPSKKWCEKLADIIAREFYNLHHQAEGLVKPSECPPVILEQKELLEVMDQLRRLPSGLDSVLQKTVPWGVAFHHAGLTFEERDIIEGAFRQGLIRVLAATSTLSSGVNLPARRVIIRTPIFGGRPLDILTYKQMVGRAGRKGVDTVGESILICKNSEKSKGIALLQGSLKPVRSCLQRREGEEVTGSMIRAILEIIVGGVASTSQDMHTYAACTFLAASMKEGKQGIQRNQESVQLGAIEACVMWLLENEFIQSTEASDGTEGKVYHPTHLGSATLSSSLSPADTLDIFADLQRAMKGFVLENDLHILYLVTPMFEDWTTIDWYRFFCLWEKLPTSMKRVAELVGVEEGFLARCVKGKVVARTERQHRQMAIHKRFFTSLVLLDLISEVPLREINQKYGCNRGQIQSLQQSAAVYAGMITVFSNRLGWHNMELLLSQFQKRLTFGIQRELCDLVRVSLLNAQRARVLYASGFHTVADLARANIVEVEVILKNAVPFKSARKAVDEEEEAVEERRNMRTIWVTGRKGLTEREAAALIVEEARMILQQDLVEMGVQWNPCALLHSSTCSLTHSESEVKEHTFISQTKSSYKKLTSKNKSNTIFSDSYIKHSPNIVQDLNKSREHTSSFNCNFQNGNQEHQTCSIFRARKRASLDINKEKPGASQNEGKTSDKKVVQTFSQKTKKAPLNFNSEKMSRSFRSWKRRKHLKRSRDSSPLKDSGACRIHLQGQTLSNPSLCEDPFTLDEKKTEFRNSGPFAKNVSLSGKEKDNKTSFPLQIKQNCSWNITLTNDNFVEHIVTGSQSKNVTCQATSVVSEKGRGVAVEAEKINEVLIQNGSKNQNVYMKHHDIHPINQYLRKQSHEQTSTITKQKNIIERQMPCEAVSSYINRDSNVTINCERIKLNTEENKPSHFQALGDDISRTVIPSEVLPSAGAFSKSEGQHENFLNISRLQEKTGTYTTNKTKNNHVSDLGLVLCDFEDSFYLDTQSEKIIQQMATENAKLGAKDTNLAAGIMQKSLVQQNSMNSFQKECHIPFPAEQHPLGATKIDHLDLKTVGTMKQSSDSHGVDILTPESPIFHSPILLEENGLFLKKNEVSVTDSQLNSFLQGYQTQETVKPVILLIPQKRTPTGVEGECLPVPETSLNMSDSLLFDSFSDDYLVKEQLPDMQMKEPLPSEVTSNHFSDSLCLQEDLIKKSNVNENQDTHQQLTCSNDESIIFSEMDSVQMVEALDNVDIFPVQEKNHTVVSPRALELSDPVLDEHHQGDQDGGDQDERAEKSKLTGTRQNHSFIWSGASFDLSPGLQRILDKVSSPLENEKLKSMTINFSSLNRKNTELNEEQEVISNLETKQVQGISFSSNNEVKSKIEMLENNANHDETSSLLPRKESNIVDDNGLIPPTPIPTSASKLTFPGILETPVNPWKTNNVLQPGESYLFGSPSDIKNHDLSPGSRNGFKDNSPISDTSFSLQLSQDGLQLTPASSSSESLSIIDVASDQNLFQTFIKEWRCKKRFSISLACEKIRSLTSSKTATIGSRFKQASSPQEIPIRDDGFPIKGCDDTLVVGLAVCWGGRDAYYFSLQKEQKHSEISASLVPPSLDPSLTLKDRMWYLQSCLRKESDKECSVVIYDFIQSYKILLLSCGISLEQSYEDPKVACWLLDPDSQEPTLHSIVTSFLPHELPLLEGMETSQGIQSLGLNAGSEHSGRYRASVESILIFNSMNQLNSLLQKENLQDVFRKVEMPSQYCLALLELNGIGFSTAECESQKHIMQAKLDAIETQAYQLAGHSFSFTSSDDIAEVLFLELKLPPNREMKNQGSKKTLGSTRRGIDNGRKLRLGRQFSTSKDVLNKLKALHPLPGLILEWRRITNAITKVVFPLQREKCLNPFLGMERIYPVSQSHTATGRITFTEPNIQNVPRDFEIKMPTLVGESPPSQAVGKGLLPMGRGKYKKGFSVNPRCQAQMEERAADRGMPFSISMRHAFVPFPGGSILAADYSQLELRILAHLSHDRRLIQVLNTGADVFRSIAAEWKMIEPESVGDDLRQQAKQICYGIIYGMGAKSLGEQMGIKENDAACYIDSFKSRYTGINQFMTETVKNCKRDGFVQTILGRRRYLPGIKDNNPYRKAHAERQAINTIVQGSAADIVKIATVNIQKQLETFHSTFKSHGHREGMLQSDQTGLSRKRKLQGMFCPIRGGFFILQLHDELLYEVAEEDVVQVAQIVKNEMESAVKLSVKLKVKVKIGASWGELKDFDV
Structure (SMILES) = O=c1ccc2cc(O)c(O)cc2o1; result = 101%
Structure (SMILES) = CC(C)(O)[C@H]1CC[C@@](C)([C@H]2[C@@H](O)C[C@@]3(C)[C@@H]4C[C@H](O[C@@H]5O[C@H](CO)[C@@H](O)[C@H](O)[C@H]5O)[C@H]5C(C)(C)[C@@H](O[C@@H]6OC[C@@H](O)[C@H](O)[C@H]6O)CC[C@@]56C[C@@]46CC[C@]23C)O1; result = 103%
Structure (SMILES) = CC(C)(O)c1ccccc1CC[C@@H](SCC1(CC(=O)O)CC1)c1cccc(/C=C/c2ccc3ccc(Cl)cc3n2)c1; result = 96%
Structure (SMILES) = COc1c2occc2cc2ccc(=O)oc12; result = 94.8%
Structure (SMILES) = Cc1ccc(/C(=C\CN2CCCC2)c2ccccn2)cc1; result = 96.7%
Structure (SMILES) = CCCC(=O)Nc1ccc(OCC(O)CNC(C)C)c(C(C)=O)c1 (stereo not drawn); result = 102%
Structure (SMILES) = CN1CCN2c3ccccc3Cc3ccccc3C2C1 (stereo not drawn); result = 101%
Structure (SMILES) = CN1CCN(C(=O)c2cc3cc(Cl)ccc3[nH]2)CC1; result = 99.8%
Structure (SMILES) = CN(C)CCC=C1c2ccccc2COc2ccccc21; result = 115%
Structure (SMILES) = CC(C)COC(=O)OCN1C(=O)CN(CCN2CC(=O)N(COC(=O)OCC(C)C)C(=O)C2)CC1=O; result = 99.3%
Structure (SMILES) = Cc1c(-c2ccc(O)cc2)n(Cc2ccc(OCCN3CCCCCC3)cc2)c2ccc(O)cc12; result = 96.2%

Some of these lines once more (study 3):
SMILES = CN([C@@H]1CCc2c(CC(=O)O)c3ccccc3n2C1)S(=O)(=O)c1ccc(F)cc1; result = 123%
SMILES = CC(=O)Nc1c(F)cc(C(=O)N[C@H]2CC[C@H](O)CC2)cc1O[C@@H](C)c1ccccc1; result = 89.2%
SMILES = C[C@@H]1CN(c2cc(-c3nn(C)c4ccc(OC5(C)CC5)cc34)ncn2)C[C@H](C)O1; result = 112%
